Measured values gathered from unrelated publications.
Every numbered part comes from another study and shows a few of its results, in no order.

Study 1
Target: Prothrombin, mature alpha-thrombin (F2, Homo sapiens, UniProt P00734)
Technique: aptamer microarray, sandwich
Molecule type: DNA with 2'F-ANA
Medium: in vitro
Tested at: 200 nM
Notes: whole 15-mer aptamer, many near background
With: Cy3 exosite-II aptamer, 400 nM
Reading: higher = stronger binding
Sequence | mean fluorescence intensity
GGTTGGTGTGGTTGG (2'F-ANA at 1 2 3 4 5 8 11 13 14 15) | 47.7 a.u.
GGTTGGTGTGGTTGG (2'F-ANA at 1 4 5 6 8 9 10 11 13) | 48.7 a.u.
GGTTGGTGTGGTTGG (2'F-ANA at 2 3 7 9 10 11 14 15) | 263 a.u.
GGTTGGTGTGGTTGG (2'F-ANA at 1 5 6 8 9 10 11 14) | 139 a.u.

Study 2
Target: Histone acetyltransferase KAT6A, both winged helices, GST fusion (KAT6A, Homo sapiens, UniProt Q92794, residues 1-181)
Technique: protein binding microarray
Molecule type: double-stranded DNA, one strand shown
Medium: in vitro
Tested at: not given
Notes: 8-mer, flanks averaged, mean of 2 arrays, mostly near background
Reference: not given
Reading: higher = stronger binding
Construct (chain): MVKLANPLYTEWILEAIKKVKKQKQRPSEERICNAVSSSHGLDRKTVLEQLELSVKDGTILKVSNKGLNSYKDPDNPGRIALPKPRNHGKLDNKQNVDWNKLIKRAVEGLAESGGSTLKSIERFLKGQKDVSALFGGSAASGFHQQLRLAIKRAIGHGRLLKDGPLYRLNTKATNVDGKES
Sequence | E-score
CAATTATC | 0.0852
CTGAGAGC | -0.0489
AATTGGAC | -0.0873
ATACTGCG | 0.12
CCCACTCC | -0.0572
GATGGTAC | -0.062
GGTCAACC | 0.000535

Study 3
Target: Phosphate system positive regulatory protein PHO4, full length, GST-tagged (PHO4, Saccharomyces cerevisiae, UniProt P07270, residues 1-312)
Technique: competition protein-binding microarray
Molecule type: double-stranded DNA, one strand shown
Medium: in vitro
Tested at: 2 µM
Notes: whole 60-bp probe, lowest competitor level
With: Cbf1 competitor, 0.05 µM
Reading: higher = stronger binding
Constant ends, left off below: … GTCTTGATTCGCTTGACGCTGCTG
Target sequence (chain): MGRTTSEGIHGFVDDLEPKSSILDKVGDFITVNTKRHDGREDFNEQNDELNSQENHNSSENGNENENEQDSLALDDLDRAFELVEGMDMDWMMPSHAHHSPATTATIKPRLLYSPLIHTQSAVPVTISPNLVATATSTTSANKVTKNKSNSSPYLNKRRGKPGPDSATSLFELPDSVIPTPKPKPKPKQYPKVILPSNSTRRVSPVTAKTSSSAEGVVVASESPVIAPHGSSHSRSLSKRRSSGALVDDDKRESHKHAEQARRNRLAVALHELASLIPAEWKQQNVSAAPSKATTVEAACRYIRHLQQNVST
Sequence | fluorescence intensity [a.u.]
CAACAACTGCTGATTCTCGTGATGGGAGAAATTAGC | 6160
CTAACGAAGGTTTGGTGGGTGGGTGACAAGCCAAGT | 4110
CTTCTGTAAATTTTTCACGTGAACTGACGCGCCCCG | 8020
GTCTTGTCTCATTGTACTGTGGGTGTCCCCACTTCA | 4680
CTAACGAAGGTTTTTCACGTGGGCTACAAGCCAAGT | 14000
ATCATACCACAGTACCCCGTGGAGTTAATGTTTAAC | 11700
TTCACAAAATTGCCACTCGTGGTGATATGCTATGGA | 9430

Other studies, line by line
Molecule | target | assay | test system | conditions | how to read | endpoint | result
PhoQ, residues 284 288 289 292 302 303 AMDMFI | PhoP, residues 12 14 15 18 19 LHTVM (Escherichia coli, UniProt P23836) | Sort-seq, refers to: YFP reporter | E. coli | PhoQ-PhoP variant library, with: 10 µM Mg2+ | reference: high Mg2+ state, higher = stronger signaling | fold induction | 1.03
